Measurements of several laboratories.
Numbered parts are unrelated; each lists some results of a single study. Positions count from the first letter of the parent shown.

Block 1 — technique: RNA Bind-n-Seq; form: RNA; matrix: in vitro; concentration: 365 nM; relative to: no-protein control; reading: higher = stronger binding
Target: RNA binding protein fox-1 homolog 2, RRM domain, GST-SBP tag (RBFOX2, Homo sapiens, UniProt O43251-10, residues 100-194)
Setting: natural RNA segment, single round, ends assumed
Construct (chain): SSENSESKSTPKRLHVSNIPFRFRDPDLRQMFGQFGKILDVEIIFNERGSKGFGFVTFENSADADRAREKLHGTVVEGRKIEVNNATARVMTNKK
Sequence	RBNS enrichment (R)
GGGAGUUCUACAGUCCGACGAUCUCGAUUCUACUUUAGAAUGAGAGUGUGAAAUAGACAUUUGUAAAUGUAAAACUUUUAAGGUAUAUCAUUAUAACUGAAGGAGAAGGUGCCCCAAAAUGCAAGAUUUUCCAUGGAAUUCUCGGGUGCCAA	0.818
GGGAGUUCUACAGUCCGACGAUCCCCCUUACCCCACAACGUGCAACUGACACUCCCACCCAGUCUCUGCUCCACCUUUCAGCCCACGUCACGUGUAGUGUCCAUUUUGUGAAGCCCUGUUGUGCCACAGAGUGUGGAAUUCUCGGGUGCCAA	0.646
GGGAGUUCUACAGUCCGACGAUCAUUCUAGCCCCACUAUGCGGGGGUGCUGUUGUCCUGCCUGUGUCUCAUCCCCAGCUGCCUAAGCUAGGGACACUCAAGUGCUUCCUUCCUUGCCCCAUCUUCCUCCCAACUGGAAUUCUCGGGUGCCAA	0.254
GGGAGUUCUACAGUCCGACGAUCCAAACAUGUAUUCUGUGCGAUAACUUGUGCCUGCGACAAGUGUUAAUCUUGGGAUCGUAUUUUUAUAUCAUAUUCACAUACUUGUUUUUUUAAUUGGUGUUAGAUGACAUUGGAAUUCUCGGGUGCCAA	2.05
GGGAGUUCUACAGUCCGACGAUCUUGUCUACUAUCCAUACUUCUUAUCACUUUAGUUUUUCAUCAGUCAAUAAAAUUAAUUUACUCUUCCCUAAUAUGUUUGAUUUGUUAAGUUUCAGAAACAUGAAAUGAAAUGGAAUUCUCGGGUGCCAA	0.565
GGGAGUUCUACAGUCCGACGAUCUGACAUUCUAUCAGCCCAACCCUCAUUCUGCAGGGCCACCUGGUGUGUGGAGGUGGCGGGAGGGGUCAGUGACUCUGGGGGUCUCCUCAGUGACCCCCAUACCUCAUCAUUGGAAUUCUCGGGUGCCAA	0.237
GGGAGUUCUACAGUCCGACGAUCACACUAGGUCACCCAGGCAAAGCCAGUGGACAGAUGCCUUUCAUAUAACCUGGGUGGGCUUUUGGAAAAUCUUUGAGAAGUUGAUUUCAUAGGCUGUAGAACAGUAAAGUUGGAAUUCUCGGGUGCCAA	0.98
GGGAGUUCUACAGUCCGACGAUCGGUACCCUCUUGGCAGAUGGGGGCAUCACUUGCUUCCUUUGGGAAGCUCUAAGGUUGCUGCAGUCACCUUCCUCAUCUUGCAGGUGCUGAACCAACAUCAUCAGUUUCUAUGGAAUUCUCGGGUGCCAA	0.417
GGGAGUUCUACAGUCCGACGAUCCCAGACUUGCACUGGGGUAGGAUAUGGAACGAUGGGGAGGUUUUUAAGGGCCGGGGAUGGAUCUUUUCUAAAUGUUAUUACUUGUAAAUAAAGUCUAUUUUUCUCCCUUGUGGAAUUCUCGGGUGCCAA	0.569
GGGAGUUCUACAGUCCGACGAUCGAGCCCUUAAAAAGACUUGAAAGUUCACUGGGACUCAGUUUACCUUAAUGCCUUAGCAGAAGAUAAAUCCUACCUAGAGACCUUUGUUCCUUAAAGCAAUAACUGACAACUGGAAUUCUCGGGUGCCAA	0.192
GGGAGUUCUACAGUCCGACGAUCCAACGUGGGCAAGUCAUUGUCCUCUGAGCUGCAGUUUCCUCAUCUGUCACAUCGCUACAGACAAGACCUCCCUGGAACCCUUCUGAUUGUCUUAGACACUGUGGUUGCAAUGGAAUUCUCGGGUGCCAA	0.285
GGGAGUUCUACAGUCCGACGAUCAAUGUAUUCAGUCUUUUAUUCUUUAUAAUUGUGUGUAAAUGUUAACUAAACAGUGGAUUCCUCUCGUGUUACAGUUUUGAGUGAAUUAUUAAAGAAGUUAAAAUGCAAUAUGGAAUUCUCGGGUGCCAA	0.608

Block 2 — technique: RNA Bind-n-Seq; form: RNA; matrix: in vitro; concentration: not given; setting: RNA with constant flanks, ends assumed; relative to: input RNA pool; reading: higher = stronger binding
Target: RING finger protein unkempt homolog, zinc fingers 1-6, GST-SBP tag (UNK, Homo sapiens, UniProt Q9C0B0, residues 30-357)
Residues (chain): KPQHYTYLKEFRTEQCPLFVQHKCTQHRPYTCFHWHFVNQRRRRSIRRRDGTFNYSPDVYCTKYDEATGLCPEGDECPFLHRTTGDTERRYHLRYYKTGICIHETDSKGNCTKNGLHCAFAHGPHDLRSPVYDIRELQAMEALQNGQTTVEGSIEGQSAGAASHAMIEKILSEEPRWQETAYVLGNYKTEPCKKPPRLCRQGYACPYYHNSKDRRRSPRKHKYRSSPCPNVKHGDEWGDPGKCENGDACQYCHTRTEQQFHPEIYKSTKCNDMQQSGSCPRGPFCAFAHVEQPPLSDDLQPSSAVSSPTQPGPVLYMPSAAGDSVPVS
Sequence	bound/input enrichment [ratio]
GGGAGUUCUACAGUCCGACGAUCCAUCUCCUCGUCCGACCUCACAGGCCGACAAGAUACCUCUCGCAUGUCCACCUCACAGAACCGCAUUCCUUUCGAACACCACGGCAAGUAGCUGCUCGUCUCCCAUCGGAAGGCAGCACUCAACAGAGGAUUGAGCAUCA	0.241
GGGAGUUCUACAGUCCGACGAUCCUUCUUUACCCCCCCAAUGUUGGUGAUUGAAGAUCCUCUCUUCAGUGGCGUGAAUAAUGACCGUUAACUUUCCAUUCAUACUUGGAACAAACCCCUUUGGUAAUGUCAAAGGCAGUACCUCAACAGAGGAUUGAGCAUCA	0.327
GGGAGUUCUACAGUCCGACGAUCUUGCCAUAUUAAUCAUCUUAGUUCCAUACACACUGAGACUUUAAAAGGGAAAAACCACUCCCGCAAAUAAUUGUCAAUUAUAAACCUGUAUGUAAAACAUUCUUGAAAACCUAGAGUUGGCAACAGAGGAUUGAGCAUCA	0.322
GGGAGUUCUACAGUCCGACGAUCGGGAACUCCACUCGGGGAACUCCUUUCCAAGCUGACCUCAGUUUUCUCACAAGAACCCAGUCCGCUGAUGUUUUAUUGUAAUUGUCUUAAUUUGCUAAGAACAAGUAAUAAGUAAAUUUUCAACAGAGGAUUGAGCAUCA	0.683
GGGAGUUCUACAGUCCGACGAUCGAUGAGGCCCAGAAGCCUUACCUGGUACAACGGAGAGGAGCUGAAUUUGCUUUGACAACUACCGUAAAGCAUUUUGGUGGUGAAAUGGCAGUGAAGUUGCCACAUCUCUGGGAUGCUAUGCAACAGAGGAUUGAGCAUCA	0.0705
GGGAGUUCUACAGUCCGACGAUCUGGACUCAUGUUGGGCCUACUCCUGCAAUAACAAUUAAGGAAUCAGUUGCCAACCAUUUGCCGUUCACAAAUUAAAACUGGGUUUCCAGGCCUGGUGUGGUGGCUCACGCCUGUAGCCCCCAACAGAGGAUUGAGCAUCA	0.553
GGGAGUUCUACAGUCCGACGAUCAUAAACACAUUUAAAUUACUGUCAUAUGCUUCCUAUUGCAUUGAGCAUGGUGAUCUGGAGCCCGCAGCAAAGUUUGUCAAUCAGCUGAAGGGGGAAUCCAGACGAGUGGCACAGGACUGGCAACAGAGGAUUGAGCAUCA	0.437
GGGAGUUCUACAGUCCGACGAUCAUCUAAACUUAGAUGGAGUUGGUCAAAUGAGGGAACAUCUGGGUUAUGCCUUUUUUAAAGCCGUUUUCUUUAGGAACUGUCAGCAUGUUGUUGUUGAAGUGUGGAGUUGUAACUCUGCGUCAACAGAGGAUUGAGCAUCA	0.205
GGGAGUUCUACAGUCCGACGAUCCUCCUUUACUUCCCAGAGAACUUCACAGAGACUCUGUCCUUCCAUGCAAAGGCUUCCUGAAACCGGGAGACUGACUGAGUAGCUCAUUCUUGUGACUUACAGUGCCAACAUUUAAAAAAGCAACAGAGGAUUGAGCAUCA	0.434
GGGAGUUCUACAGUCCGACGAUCAUUGGUGGUGCUUCUAGUCGAGGUGAAAAUUCUUAUGGACUAGAAACUGUGUGUAAGGAUAUCCGGAAUUUACGAUUUGCUCAUAAACCUGAGGGGCGGACAAGAAGAUCCAUAUUUGAGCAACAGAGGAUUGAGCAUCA	0.189
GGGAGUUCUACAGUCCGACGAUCGAUGUUCCACCUGCUCAGAUCUAUCCUCUCCCUAAGCAACAGAACCUUCCUAAGAGACCUACCCGUUUGCCUUUGAACACCAAAAAUUCAACAAAAGAACCCCGGCUAAAAUUUGGCAACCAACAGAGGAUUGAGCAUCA	0.463

Block 3 — target: CCNA2, cyclin fold, Cln2 fusion (human); technique: yeast growth competition, sequencing; matrix: yeast; setting: strong parent motif; relative to: not given; reading: higher = stronger binding
Starting sequence: DOT1L docking peptide (human); SEAKRRIVFTITT; partner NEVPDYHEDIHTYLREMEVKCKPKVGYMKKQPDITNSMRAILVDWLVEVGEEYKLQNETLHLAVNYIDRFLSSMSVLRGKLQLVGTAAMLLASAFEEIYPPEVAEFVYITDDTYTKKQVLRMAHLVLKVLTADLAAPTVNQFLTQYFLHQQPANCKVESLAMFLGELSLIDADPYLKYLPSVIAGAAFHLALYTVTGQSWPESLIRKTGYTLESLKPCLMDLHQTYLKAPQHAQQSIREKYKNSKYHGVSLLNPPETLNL
Substitution	normalised enrichment score
SEAKRAIVFTITT [R6A]	0.56
SEAKRRAVFTITT [I7A]	0.35
SEAKRRIVFAITT [T10A]	1.95
SEAKRRIVFTITA [T13A]	2.42
SEAKRRIAFTITT [V8A]	1.23
SEAKRRIVFTATT [I11A]	2.63

Block 4 — technique: DHFR PCA, deep sequencing; matrix: yeast; together with: (+)-ABA 0.0091 µM; relative to: wild-type fitted maximum; reading: higher = stronger binding
Target: ABI1, truncated, D143A, DHFR fusion (Arabidopsis thaliana)
Setting: methotrexate growth selection, single substitutions
Starting sequence: PYL1, truncated, DHFR fusion (Arabidopsis thaliana); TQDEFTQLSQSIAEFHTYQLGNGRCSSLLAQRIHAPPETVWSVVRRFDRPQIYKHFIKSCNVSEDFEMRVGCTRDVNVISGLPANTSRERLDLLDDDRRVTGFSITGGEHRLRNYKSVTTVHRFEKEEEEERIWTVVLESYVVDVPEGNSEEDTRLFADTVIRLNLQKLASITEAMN; partner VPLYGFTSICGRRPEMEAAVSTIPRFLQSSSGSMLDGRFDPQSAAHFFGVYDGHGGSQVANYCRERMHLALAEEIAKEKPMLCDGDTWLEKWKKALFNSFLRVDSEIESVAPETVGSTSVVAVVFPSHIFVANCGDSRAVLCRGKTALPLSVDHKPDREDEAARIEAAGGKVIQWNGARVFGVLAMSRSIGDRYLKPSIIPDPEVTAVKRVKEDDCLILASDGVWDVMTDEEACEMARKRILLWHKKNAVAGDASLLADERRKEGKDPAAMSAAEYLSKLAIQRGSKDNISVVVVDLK
Substitution	relative binding score [%]
E128D	47
H55D	-7.46
W134F	23.6
I12A	1.96
V43A	2.64
F66D	-0.591
T17Y	-3.32
A35R	-2.3
W41A	-7.82
R155K	41.5
F157W	29.3
T106A	-2.98

Repeated from above (block 3):
Substitution	normalised enrichment score
SEAKRAIVFTITT [R6A]	0.56
SEAKRRAVFTITT [I7A]	0.35
SEAKRRIVFAITT [T10A]	1.95
SEAKRRIVFTITA [T13A]	2.42
SEAKRRIAFTITT [V8A]	1.23
